Published values of several laboratories.
Each numbered part is a random draw from the data of one study; scales do not carry over between parts. Positions count from the first letter of the parent shown.

Study 1 — target: CCND2, cyclin fold, Cln2 fusion (human); method: yeast growth competition, sequencing; matrix: yeast; notes: weak parent motif; reference: not given; reading: higher = stronger binding; measurement: normalised enrichment score
Starting sequence: CDC6 docking peptide (human); TLKGRRLVFDNQL
L7A: 0.136
T1R: -0.228
N11M: 0.0385
V8Q: -0.0231
V8T: 0.627
R5K: 0.0303
R6D: 0.071
R5C: 0.0954
V8W: 0.299
K3M: 0.438
L2G: 0.296
Q12G: 0.781
T1E: 0.341
D10N: 0.731
K3I: 0.513
T1C: 0.234
R6P: 0.0665
N11K: 0.0906
T1L: -0.13
K3S: 0.253
G4F: 0.297
R5D: -0.328
N11Q: 0.552
Q12A: 0.546
Q12T: 0.132

Study 2 — method: protein binding microarray; molecule type: double-stranded DNA, one strand shown; matrix: in vitro; tested at: not given; reference: not given; reading: higher = stronger binding; measurement: E-score
Target: Histone acetyltransferase KAT6A, winged helix 1, GST fusion (KAT6A, Homo sapiens, UniProt Q92794, residues 1-85)
Notes: 8-mer, flanks averaged, mean of 2 arrays, mostly near background
Residues (chain): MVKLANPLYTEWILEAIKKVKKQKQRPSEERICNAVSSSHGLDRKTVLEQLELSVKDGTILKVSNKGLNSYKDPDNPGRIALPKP
CATGGCAC: 0.0634
GGACCGAA: -0.205
GGTTGTAC: -0.00945
GATCATAA: -0.133
AAGTGGGG: -0.186
GATCTCAA: 0.0491
ATTTCTGA: -0.19
ATCTGTGG: -0.235
GCAGCTAA: -0.116
AATCGTCG: 0.018
CCGACCAG: 0.0823
TATGATAA: -0.158
AAACCGGT: 0.255
CGAGCCCC: 0.0324
CGGTTGAC: 0.243
CACCCTAG: -0.341
CCATGTAC: -0.107
AAACACCT: -0.0791
CTCCTCTC: -0.0722
AGCCCGTG: 0.219
AATTAGTC: -0.0282
ATTATAAG: -0.125
TCAGGCCA: -0.0703
AAGGTCCT: -0.189
AGAGAGGA: -0.157

Study 3 — method: competition protein-binding microarray; molecule type: double-stranded DNA, one strand shown; matrix: in vitro; tested at: 2 µM; together with: Cbf1 competitor, 0.05 µM; reading: higher = stronger binding; measurement: fluorescence intensity; shared flanks, not repeated: … GTCTTGATTCGCTTGACGCTGCTG
Target: Phosphate system positive regulatory protein PHO4, full length, GST-tagged (PHO4, Saccharomyces cerevisiae, UniProt P07270, residues 1-312)
Notes: whole 60-bp probe, lowest competitor level
Construct (chain): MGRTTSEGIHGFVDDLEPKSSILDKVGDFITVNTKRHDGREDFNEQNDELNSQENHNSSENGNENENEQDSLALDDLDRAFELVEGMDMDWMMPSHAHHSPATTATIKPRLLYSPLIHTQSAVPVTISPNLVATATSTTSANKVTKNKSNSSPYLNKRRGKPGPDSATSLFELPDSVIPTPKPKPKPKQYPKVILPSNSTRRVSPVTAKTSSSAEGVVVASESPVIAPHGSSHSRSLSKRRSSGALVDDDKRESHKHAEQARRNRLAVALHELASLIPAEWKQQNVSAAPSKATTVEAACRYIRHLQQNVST
CGGGGTTAAGTTTGTCACACAACTTGCTTGCAGCAG: 3730 a.u.
ACCTCTTCCATGTCCCACGTAATGGCAATTGGCATA: 6510 a.u.
CATACCCAACCTTTTCACGTGGTATAAGATATTTGT: 13900 a.u.
CTGAGCATAGCCAATCACGTGGCCCACTCCCCGGCT: 16600 a.u.
AAATTACTAAGTTGGTAAGTGGGTGACGCCGTATGA: 3250 a.u.
TAGGAAGAAGAACTCGTCGTGCAAATCGGATAGTTG: 5360 a.u.
CAAGAAATAAAAGAAAACGTGACTCGAGGCCTCCAT: 12800 a.u.
TTGCTTGCAAACCGTCACATGCTTATAATCAACTTT: 9390 a.u.
AGCTGCAATTAATGCAGTTGAGAACTAGCTTTTTTT: 2870 a.u.
TATTATTGATCGAGTCACGTTCTTCCAACGTTTCCG: 14100 a.u.
TTGCCATGGCGATCGCGCGTGGGTATGGTCTTTCCC: 7640 a.u.
GAATTTGACCAAAACCACGTGGTTTGGCTGCAAGTT: 17200 a.u.
ATGTTCCTCAAGGTGCTCGTGTCCACACCGAAAAAT: 9820 a.u.
GTCCGCCATGTCCAACACGTTGCTGGCCGCAAAACG: 12900 a.u.
CTTTCCCGATCTTGTGTAGTGGGTGTAGCACATTTG: 5370 a.u.
TTCCCATTGACGTACAAGGTGATGCTGATCGTTCGG: 4730 a.u.
AATAAGTCGATCCAACACGTGGTGAGATACTAGCAG: 18300 a.u.
ACTAAAAGGCGCTGGCACGATTTTCTTTGATGCTAA: 7600 a.u.

Study 4 — method: universal PBM; molecule type: double-stranded DNA, one strand shown; matrix: in vitro; tested at: 600 nM; reading: higher = stronger binding; measurement: E-score
Target: Sal-like protein 4, full length isoform A (SALL4, Homo sapiens, UniProt Q9UJQ4, residues 1-1053)
UniProt Q9UJQ4, sequence (whole entry, looked up): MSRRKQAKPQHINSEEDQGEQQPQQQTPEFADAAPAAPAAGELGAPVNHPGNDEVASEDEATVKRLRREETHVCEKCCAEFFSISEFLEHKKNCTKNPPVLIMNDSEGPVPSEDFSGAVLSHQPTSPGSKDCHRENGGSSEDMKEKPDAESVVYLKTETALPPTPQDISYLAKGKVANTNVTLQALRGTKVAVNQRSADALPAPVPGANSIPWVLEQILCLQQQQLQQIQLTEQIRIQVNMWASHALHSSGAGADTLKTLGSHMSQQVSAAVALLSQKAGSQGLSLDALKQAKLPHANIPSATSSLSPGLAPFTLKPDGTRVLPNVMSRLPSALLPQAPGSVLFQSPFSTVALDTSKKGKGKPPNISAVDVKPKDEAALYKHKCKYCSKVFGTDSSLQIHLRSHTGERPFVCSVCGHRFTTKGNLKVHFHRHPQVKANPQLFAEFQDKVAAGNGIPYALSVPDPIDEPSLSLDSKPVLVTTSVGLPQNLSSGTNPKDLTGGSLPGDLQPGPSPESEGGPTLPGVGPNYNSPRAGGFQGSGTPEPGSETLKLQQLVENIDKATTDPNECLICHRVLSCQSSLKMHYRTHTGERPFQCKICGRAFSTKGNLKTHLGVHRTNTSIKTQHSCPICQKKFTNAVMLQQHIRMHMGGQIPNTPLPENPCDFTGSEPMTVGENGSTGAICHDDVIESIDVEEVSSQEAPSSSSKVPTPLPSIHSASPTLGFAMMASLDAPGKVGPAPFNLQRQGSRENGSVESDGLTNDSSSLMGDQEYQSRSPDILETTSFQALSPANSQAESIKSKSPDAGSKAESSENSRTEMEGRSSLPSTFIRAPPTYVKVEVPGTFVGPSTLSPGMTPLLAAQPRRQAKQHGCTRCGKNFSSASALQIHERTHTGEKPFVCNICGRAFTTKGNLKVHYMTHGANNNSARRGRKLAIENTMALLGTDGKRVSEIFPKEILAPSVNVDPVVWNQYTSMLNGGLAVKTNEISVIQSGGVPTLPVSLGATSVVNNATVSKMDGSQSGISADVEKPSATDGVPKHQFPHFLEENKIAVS
Notes: 8-mer, flanks averaged, mean of replicates
CAAGGGGA: -0.128
TGAGCACA: -0.0135
CAACTTAC: -0.00722
CGGTTCTC: -0.154
GGTCCCCA: -0.395
CGGACGAG: -0.23
CCTTTGAC: -0.0215
CATGAATG: 0.171
CCTTGTGC: -0.149
CCGAAGCA: -0.009
GCCCAGGA: -0.288
CAGGGTCC: -0.319
AGACAAAG: 0.0325
AAGGAAAG: 0.0124
CGAGGGTC: -0.371
GGGAGATA: 0.0522

Study 5 — method: DHFR PCA, deep sequencing; matrix: yeast; together with: (+)-ABA 17 µM; reference: wild-type fitted maximum; reading: higher = stronger binding; measurement: relative binding score
Target: ABI1, truncated, D143A, DHFR fusion (Arabidopsis thaliana)
Notes: methotrexate growth selection, single substitutions
Starting sequence: PYL1, truncated, DHFR fusion (Arabidopsis thaliana); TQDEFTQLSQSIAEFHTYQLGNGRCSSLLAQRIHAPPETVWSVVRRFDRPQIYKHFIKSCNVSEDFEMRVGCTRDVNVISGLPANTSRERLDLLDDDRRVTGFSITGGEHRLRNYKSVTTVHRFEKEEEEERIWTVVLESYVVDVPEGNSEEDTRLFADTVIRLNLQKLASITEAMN; partner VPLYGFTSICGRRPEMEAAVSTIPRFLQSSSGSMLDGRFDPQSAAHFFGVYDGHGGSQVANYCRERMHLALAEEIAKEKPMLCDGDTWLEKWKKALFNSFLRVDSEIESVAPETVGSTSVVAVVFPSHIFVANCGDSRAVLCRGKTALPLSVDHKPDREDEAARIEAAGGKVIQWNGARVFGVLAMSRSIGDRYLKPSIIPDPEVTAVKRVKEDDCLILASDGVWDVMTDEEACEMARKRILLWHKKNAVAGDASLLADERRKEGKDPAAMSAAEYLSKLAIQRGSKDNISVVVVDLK
E152C: 70.5%
R24G: 36.8%
E131N: 94.4%
V142P: -16.8%
G81D: 3.41%
S150A: 41%
Y18F: 59.5%
L28D: 12.2%
E125A: 90.2%
C60Q: -5.53%
V76H: -8.95%
T173K: -5.42%
G21H: 84.3%
R49M: 80.2%
P50N: 5.5%
N149C: 30.2%
S150Q: 38.2%

Study 6 — target: JUNB, bZIP domain (human); method: DHFR protein complementation; matrix: yeast; reference: wild-type JUN-FOS pair; reading: higher = stronger binding; measurement: binding fitness
Notes: single substitutions, most at no-binding floor
Starting sequence: JUN, bZIP domain (human); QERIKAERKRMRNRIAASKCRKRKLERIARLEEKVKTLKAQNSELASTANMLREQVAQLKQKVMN; partner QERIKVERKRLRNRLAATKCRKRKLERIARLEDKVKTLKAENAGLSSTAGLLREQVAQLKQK
A46V: -1.05 natural log
E44Y: -1.3 natural log
M51K: -0.997 natural log
Q55N: -1.49 natural log
A46I: -0.927 natural log
K39M: -0.983 natural log
A57M: -1.1 natural log
E32F: -1.46 natural log
K34A: -1.09 natural log
I28G: -1.35 natural log
A29H: -1.06 natural log
A46D: -1.49 natural log
T48G: -1.45 natural log
A49Q: -1.35 natural log
A29W: -1.3 natural log
E33L: -1.24 natural log

Repeated from above (study 1):
R6P: 0.0665
N11K: 0.0906
T1L: -0.13
K3S: 0.253
G4F: 0.297
R5D: -0.328
